# Measurements pooled from the literature.
# Lines come from different studies, so protocols differ. ± gives the spread as reported.
SMILES,assay,system,conditions,scale,quantity,result
CC1N=C(c2ccccc2F)c2cc(Br)ccc2-n2cnc(C(=O)OC3OC(CO)C(O)C(O)C3O)c21 (stereo not shown),LC-MS/MS,"Swiss Webster mouse, female, urine","intravenous, 250 µg parent drug, 0 to 24 h",,cumulative excretion,44 ± 3.4%
COC(=O)C[C@](O)(CCCC(C)(C)OC(C)=O)C(=O)O[C@@H]1C(OC)=C[C@]23CCCN2CCc2cc4c(cc2[C@H]13)OCO4,,"CD1 mouse, brain","oral, 1 mg/kg, 0.5 h, below quantification limit 1.00 ng/mL",,tissue concentration,not detected
COc1cc2ccnc(Cc3ccc(O[11CH3])c(OC)c3)c2cc1OC,,"Sprague-Dawley rats, heart","intravenous, 0.5 h",,tissue uptake,0.092 ± 0.017 %ID/g
CC[C@H](C)[C@H](NC(=O)CNC(=O)[C@H](Cc1c[nH]cn1)NC(=O)[C@H](CC(C)C)NC(=O)CNC(=O)[C@H](CC(C)C)NC(=O)[C@H](CCCCN)NC(=O)[C@H](Cc1ccccc1)NC(=O)[C@H](CC(C)C)NC(=O)[C@H](CCCCN)NC(=O)CNC(=O)[C@H](Cc1c[nH]c2ccccc12)NC(=O)[C@H](Cc1ccccc1)NC(=O)CN)C(=O)NCC(=O)N[C@@H](CC(C)C)C(=O)N[C@@H](CC(C)C)C(=O)N[C@@H](Cc1c[nH]cn1)C(=O)N[C@@H](CC(C)C)C(=O)N[C@@H](Cc1c[nH]cn1)C(=O)N[C@@H](CC(C)C)C(N)=O,mortality,"zebrafish embryos, 4 hpf",,,lethal concentration,1 µM
CC[C@H](C)C(=O)N1CCC(NC(=O)Nc2ccc(OC(F)(F)F)c(F)c2)CC1,,"healthy volunteers, both sexes","oral, 8 mg, fed state",,subjects with any adverse event,14.3%
CC[C@H](C)[C@H](NC(=O)[C@H](CC(=O)O)NC(=O)[C@H](CO)NC(=O)[C@H](CCC(N)=O)NC(=O)[C@H](C)NC(=O)[C@H](CC(=O)O)NC(=O)[C@H](CCC(=O)O)NC(=O)[C@H](Cc1c[nH]cn1)NC(=O)[C@H](Cc1ccc(O)cc1)NC(=O)[C@H](C)NC(=O)[C@H](CC(=O)O)NC(=O)[C@H](CCC(=O)O)NC(=O)[C@H](Cc1c[nH]cn1)NC(=O)[C@H](Cc1ccc(O)cc1)NC(=O)[C@H](C)NC(=O)[C@H](CC(=O)O)NC(=O)[C@H](CCC(=O)O)NC(=O)[C@H](Cc1c[nH]cn1)NC(=O)[C@H](Cc1ccc(O)cc1)NC(=O)[C@H](C)NC(=O)[C@H](CC(=O)O)NC(=O)[C@H](CCC(=O)O)NC(=O)[C@H](Cc1c[nH]cn1)NC(=O)[C@H](Cc1ccc(O)cc1)NC(=O)[C@H](C)NC(=O)[C@H](CC(=O)O)NC(=O)[C@H](CCC(=O)O)NC(=O)[C@H](Cc1c[nH]cn1)NC(=O)[C@@H](N)Cc1ccc(O)cc1)C(=O)N[C@H](C(=O)N[C@@H](C)C(=O)N[C@@H](Cc1c[nH]cn1)C(=O)N[C@@H](CC(C)C)C(=O)N[C@@H](CC(C)C)C(=O)O)C(C)C,,"mouse SN model, blood",dose not given,,EO share of white cells,2.4 ± 0.6%
"O=C(c1ccc(F)cc1)C1CCN(C2Cc3c(cccc3OCC[18F])CC2O)CC1 (single isomer, unassigned; (-))",,"rat, brain",5 min,,tracer uptake,0.144 %ID/g
COC(=O)C[C@H](NC(=O)[C@H](C)NC(=O)[C@@H](NC(=O)[C@H](CC(=O)OC)NC(=O)[C@@H](NC(=O)c1ccc2ccccc2n1)C(C)C)C(C)C)C(=O)COc1c(F)cccc1F,,rat pups,"1 mg/kg, 48 h",,core body temperature,36.8 ± 0.23 °C
C[C@@H](O)[C@H](NC(=O)[C@H](CCCCN)NC(=O)[C@H](Cc1c[nH]c2ccccc12)NC(=O)CN)C(=O)N[C@@H](CCCNC(=N)N)C(=O)NC(C)(C)C(=O)N[C@@H](CCCNC(=N)N)C(=O)NC(C)(C)C(=O)N[C@H](C(=O)N[C@@H](CO)C(=O)N[C@@H](Cc1c[nH]cn1)C(=O)N[C@@H](Cc1ccc(O)cc1)C(=O)NCC(=O)O)[C@@H](C)O,,"C57BL/6 mouse, blood","intravenous, 50 mg/kg, 10 h",,lactate dehydrogenase,1000 to 2400 U/L
CC[C@@H]1C[C@]1(NC(=O)[C@@H]1C[C@@]2(CN1C(=O)[C@@H](NC(=O)[C@@H](NC(=O)[C@@H]1CCCCN1C(C)C)C1CCCCC1)C(C)(C)C)C(C)(C)C21CCC1)C(=O)NS(=O)(=O)N1CCCC1,measured: nausea,human fed,"oral, 100 mg single dose",,subjects with adverse event,0%
CC(C)C[C@@H](N)C(=O)NCC(=O)N[C@H](C)C(=O)N[C@H](CO)C(=O)N[C@H](Cc1c[nH]c2ccccc12)C(=O)N[C@H](Cc1c[nH]cn1)C(=O)N[C@H](CCCNC(=N)N)C(=O)N1CCC[C@@H]1C(=O)N[C@H](CC(=O)O)C(=O)N[C@H](CCCCN)C(=O)N[C@H](CS)C(=O)N[C@H](CS)C(=O)N[C@H](CC(C)C)C(=O)NCC(=O)N[C@H](Cc1ccc(O)cc1)C(=O)N[C@H](CCC(N)=O)C(=O)N[C@H](CCCCN)C(=O)N[C@H](CCCNC(=N)N)C(=O)N1CCC[C@@H]1C(=O)N[C@H](CC(C)C)C(=O)N1CCC[C@@H]1C(N)=O,LC-MS/MS,rat plasma extract,"25 ng/mL, 4 h, 8 °C, autosampler storage",,measured concentration,21.7 ± 1.1 ng/mL
COc1cc(NC(=O)C(=O)c2c(C)n(Cc3ccc(Cl)cc3)c3ccc(C)cc23)ccn1,,"cynomolgus monkey, plasma","oral, 10 mg/kg",,AUC(0-inf),3.39 µg·h/mL
CCCCCCCCCCCCC(=O)O.O=C1CCCC2C3CCCN4CCCC(CN12)C34 (stereo not shown),electrical conductivity,water,303.15 K,,standard enthalpy of aggregation,-2.62 kJ/mol
CC[C@H](C)[C@H](NC(=O)[C@H](C)NC(=O)[C@H](CCCNC(=N)N)NC(=O)CNC(=O)CNC(=O)[C@H](CCCNC(=N)N)NC(=O)[C@H](CCCNC(=N)N)NC(=O)[C@H](CCCNC(=N)N)NC(=O)[C@H](CCC(N)=O)NC(=O)[C@H](CCCNC(=N)N)NC(=O)[C@H](CCCNC(=N)N)NC(=O)[C@H](CCCCN)NC(=O)[C@H](CCCCN)NC(=O)[C@H](CCCNC(=N)N)NC(=O)CNC(=O)[C@@H](N)Cc1ccc(O)cc1)C(=O)N[C@H](C(=O)N[C@H](C(=O)N[C@@H](CC(C)C)C(=O)N[C@@H](CC(=O)O)C(=O)N[C@H](C(=O)N[C@@H](CCC(=O)O)C(=O)N[C@@H](CCCCN)C(=O)N[C@@H](CO)C(=O)O)[C@@H](C)O)[C@@H](C)CC)[C@@H](C)O,,"rat, TRPV1 knockout, myocardial infarction","dose not given, 2 h reperfusion",,rectal body temperature,37 ± 0.1 °C
O=c1oc2cc(O)ccc2c2ccc(O)cc12,potentiometric titration,"water, extrapolated from methanol/water",25 °C,,pKa2,9.05
CC[C@@H](C)[C@H](NC(=O)[C@H](C)NC(=O)[C@H](CCCCN)NC(=O)[C@H](CC(C)C)NC(=O)[C@H](C)NC(=O)[C@@H](NC(=O)[C@H](Cc1c[nH]cn1)NC(=O)[C@H](CC(C)C)NC(=O)[C@@H](NC(=O)[C@@H](NC(=O)[C@H](CCCCN)NC(=O)[C@H](CCCCN)NC(=O)[C@H](C)NC(=O)[C@H](CO)NC(=O)[C@H](CCCCN)NC(=O)[C@H](Cc1ccccc1)NC(=O)[C@@H](NC(=O)[C@H](CCCCN)NC(=O)[C@H](CC(C)C)NC(=O)[C@H](Cc1ccccc1)NC(=O)[C@H](CO)NC(=O)[C@H](CCCCN)NC(=O)[C@H](Cc1c[nH]c2ccccc12)NC(=O)[C@H](CCCCN)NC(C)=O)[C@@H](C)O)[C@@H](C)O)C(C)C)[C@@H](C)O)C(=O)N[C@@H](CO)C(=O)N[C@@H](CO)C(N)=O,circular dichroism at 222 nm,KCl phosphate buffer,"75 µM, pH 7.4, 30 °C",,mean residue ellipticity,-2950 deg cm² dmol⁻¹
CCN(Cc1ccccc1)C(=O)CCc1nc(CN2CCN(C(=O)Cc3ccc(OC)c(OC)c3)CC2)no1,,"rat, brain","intravenous, 1 mg/kg, 30 min",,concentration,3.4 ng/g
COC(=O)C=CCCC(NC(=O)c1ccncc1C(=O)O)C(=O)NC(C(=O)N1CC(=O)CC1C(=O)NC(C(=O)NC(C(N)=O)C1CCCCC1)C1CCCCC1)C(C)(C)C (stereo not shown),,"New Zealand White rabbits, venous stasis, jugular vein","intravenous bolus plus infusion, dose not given, time not given",reference: baseline,blood flow recovery,22%
CC(C)[C@H](NC(=O)CNC(=O)[C@H](CCC(N)=O)NC(=O)[C@H](C)N)C(=O)O,,human,"intravenous infusion, 15 mg/kg/h, 2 h infusion",,discontinued due to adverse events,0%
C=CC1CN2CCC1CC2C(O)c1c(-c2ccc(N=Nc3ccccc3)cc2)cnc2ccc(OC)cc12 (stereo not shown),,,480 nm irradiation,,photoisomerization quantum yield,0.32
O=C(C[P+]([Au-][Cl])(c1ccccc1)c1ccccc1)[O][Ti+2][O]C(=O)C[P+]([Au-][Cl])(c1ccccc1)c1ccccc1.c1cc[cH-]c1.c1cc[cH-]c1,general toxicity,mouse,subcutaneous,,MTD,10 mg/kg/day
CSCC[C@@H]1NC(=O)[C@@H]2CSSC[C@H](NC(=O)[C@H](CO)NC(=O)[C@H](C)N)C(=O)N[C@@H](CCCNC(=N)N)C(=O)N[C@@H]([C@@H](C)O)C(=O)N3CCC[C@H]3C(=O)N[C@@H](CCCCN)C(=O)N[C@@H](CC(=O)O)C(=O)N[C@H]3CSSC[C@H](NC(=O)[C@H](CCCCN)NC(=O)[C@H](CCCNC(=N)N)NC(=O)[C@H](CC(N)=O)NC1=O)C(=O)N[C@@H](CCCCN)C(=O)N[C@H]1CSSC[C@H](NC(=O)[C@@H]4CCCN4C(=O)[C@H](CC(=O)O)NC(=O)[C@H](C)NC3=O)C(=O)N[C@@H](C)C(=O)N[C@@H](CCCCN)C(=O)N[C@@H](CCC(=O)O)C(=O)N[C@@H]([C@@H](C)O)C(=O)NCC(=O)N[C@@H](CSSC[C@@H](C(N)=O)NC(=O)[C@H](CCCNC(=N)N)NC(=O)[C@H](CC(N)=O)NC1=O)C(=O)N1CCC[C@H]1C(=O)N[C@@H](Cc1ccc(O)cc1)C(=O)NCC(=O)N[C@@H](CCCCN)C(=O)N2,,"DA rat, pristane-induced arthritis, serum","subcutaneous, 0.1 mg/kg every other day, 21 days",,VLDL,9 mg/dL

# Repeated from above:
SMILES,assay,system,conditions,scale,quantity,result
COc1cc2ccnc(Cc3ccc(O[11CH3])c(OC)c3)c2cc1OC,,"Sprague-Dawley rats, heart","intravenous, 0.5 h",,tissue uptake,0.092 ± 0.017 %ID/g
